Published values from different studies.
Each numbered part is a random draw from the data of one study; scales do not carry over between parts. Positions count from the first letter of the parent shown.

Sample 1 — method: RNA Bind-n-Seq; form: RNA; medium: in vitro; tested at: 365 nM; reference: no-protein control; direction: higher = stronger binding; quantity: RBNS enrichment (R)
Target: RNA binding protein fox-1 homolog 2, RRM domain, GST-SBP tag (RBFOX2, Homo sapiens, UniProt O43251-10, residues 100-194)
Setting: natural RNA segment, single round, ends assumed
Constant ends, left off below: GGGAGUUCUACAGUCCGACGAUC … UGGAAUUCUCGGGUGCCAA
GGAGAGGCCUGUGCACUGCUGAAGUUCUUGCUGAUGAUUCUAGCUGUAAACCUUUGUUGCCGCCGCAGGAAGCUGAGGCCAGCUUGUGUGUGAGCACUGGAGUGUCCAGA: 0.424
CCUCUUCCACUUGAAAUGACUCUAAGGUUUUCAUUUUAUUCAAGCUUUGUGGGACAGACAAACUUUUUAAAAAUUACUUUGUUGACUGACAAACCAGCUGCCAGCUUCUG: 0.514
UGGACCACUGAGAGCCACAGGACCGUUUUGGGGCUGACCUGUCUUAUUACGUAUGUACUUCUAGGUUGCAAGGUUUUGAAAUUUUCUGUACAGUUUGUGAGGACCUUUGC: 0.559
AAGGCAUACAGGAGGGGGCCCACUGAUCUUUGUCAGAUGGCCUGCAGGCACUCUGCAGAGGAUGGAAGAGGAGACCCCUGUUCUGGGCUUAUUUAUUAAUCUUGAUUUAA: 0.424
AGUAUAUAAAAAUAAACAAAAAGUCCUUGAAGCUUUACAGUUAAUUUAGGUAUGGGCUUACUGGACUCCAACAUCUUUUGUACUCUUUCAUGCUUAUAUAGAAUCUGAGU: 0.894
GCCUAACAGAUUGGCUUGUUUUAAAGCAAAGACUGAAUUGAAGGUUACAUGUUUUAGGAUAAACUAAUUUCUUUUGAGUUCAUAAAUCAUUUGUACCCAGAAUGUAUUAA: 0.37
UUUUAAAAAAAAUAAAAUUUAACAGUUAUCAGCUGAUAGGCAAGUCAUUGAAAAAGUAAUUUUACGUCUGGCUGGUGAGAGUAAAGUUGGAAAAAUAAUUUUGCAUUUUU: 1.02
AAUUUGAUGCAUAACUUUUAAGUACACUUAACACUUCAGGGCAGGAUUUUACUUUUAUUUUUUAAAAAUACUAAGCAGUGAUCUUUAUUAACUAGGACCAUUUUCCUGAA: 0.47

Sample 2 — target: CCNB3, cyclin fold, Cln2 fusion (human); method: yeast growth competition, sequencing; medium: yeast; setting: strong parent motif; reference: not given; direction: higher = stronger binding; quantity: normalised enrichment score
Starting sequence: viral docking peptide; TSVRRALFTGGSD; partner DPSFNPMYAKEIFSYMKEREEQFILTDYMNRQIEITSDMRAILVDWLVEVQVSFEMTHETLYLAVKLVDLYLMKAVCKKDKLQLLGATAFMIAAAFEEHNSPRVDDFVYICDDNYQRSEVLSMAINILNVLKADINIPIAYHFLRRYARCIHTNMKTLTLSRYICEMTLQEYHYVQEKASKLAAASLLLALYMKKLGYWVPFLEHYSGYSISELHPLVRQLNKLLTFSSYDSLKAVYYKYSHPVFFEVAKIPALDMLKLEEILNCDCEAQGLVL
G10V: 1.54
T1A: 1.7
L7Q: 0.183
G10D: 2.66
A6N: 2.15
T9S: 1.77
S12M: 1.73
L7E: -0.0298
F8W: 0.417
R5I: 0.546
G10A: 1.85
S12A: 1.47
T9C: 1.42
T9L: 1.55
G11D: 2.43
G10E: 3.12
G11P: 2.45

Sample 3 — method: EMSA with sequencing; form: double-stranded DNA, one strand shown; medium: in vitro; tested at: 10 and 20 nM; reference: negative control set to 0; direction: higher = stronger binding; quantity: normalised bound fraction
Target: Hepatocyte nuclear factor 3-alpha (Foxa1, Mus musculus, UniProt P35582, residues 1-468, full length assumed)
Setting: whole designed probe, mean of two concentrations, ends assumed
Constant ends, left off below: GTGAGCGGTGCCCATTGATGGGGAAC … TTTCACTGGGATCGTGGGGAC
Construct (chain): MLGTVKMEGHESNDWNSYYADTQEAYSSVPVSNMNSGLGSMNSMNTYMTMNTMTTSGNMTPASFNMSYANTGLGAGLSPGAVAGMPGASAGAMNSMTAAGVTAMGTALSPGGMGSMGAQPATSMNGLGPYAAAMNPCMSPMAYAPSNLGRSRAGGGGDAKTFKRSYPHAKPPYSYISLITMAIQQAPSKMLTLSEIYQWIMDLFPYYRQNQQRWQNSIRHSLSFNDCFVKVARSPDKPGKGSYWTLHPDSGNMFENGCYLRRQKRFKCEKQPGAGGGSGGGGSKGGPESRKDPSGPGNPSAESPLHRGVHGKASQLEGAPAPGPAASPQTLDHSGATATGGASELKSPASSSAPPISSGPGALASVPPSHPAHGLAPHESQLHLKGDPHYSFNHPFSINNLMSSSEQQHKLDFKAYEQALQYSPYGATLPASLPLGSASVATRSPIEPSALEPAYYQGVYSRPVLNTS
TTTCCAGCCCTTAGTTTCTGGCATTTAACCTGACTCTGGTCCCTGAATGGCATGGGAGTGCTTTCAACCACAGGTTTCCACATTCATGCCACTTGTTTGCTTTTTGATCTACAGAGATCTCTGACTCATTCTTATTTGCTTTGTGTTTCCAATGGAGAAAGAGCTTGGGAAGGGAGGATCCTAATTGTCTAAA: 0.435 ratio
TTTCCTGGCTGGCAGTTCCTGGGAGGGAGGGGCTCCAGCAGCCGGGAGGCAGGGTGCCGGCCTGCAGTGGCCTATCTTGGTCCCTGCCCAGAGTAATTTAAGGCCGAGCATCTCAGCACGGCTGCCACACCCCCGACTCCACTTCCTCCCTTTGGGGATTCCTGTTGGCTTCTGTGTCCTAGCCTGGCACCCC: -0.0854 ratio
ATTGATATAATAAAAAAACACTGATAAAGTTTATTAAAACACTTAAAGGACATTTCTCATTTTGCATAATATTTTGTAATAAAATCATCTATGTAATTTTGGAAAATGTGTAGGGAAGTGAGAAGAACATTAACCACACAAAGTGTACCCCTGAGTCTCTATGAGATTTCATTTCCTTTTGTAAAATAAAATG: 0.0291 ratio
TACTGAATAATAATTATTAAGCTATATACTTACAGAAAAGAGGATATGAAAATATTAATCAAGTATGACCTCTACTGGTAACTTTTATGCACTGTCATCTAGAGATCTAAGATTTTTATTGAGCTCCTACCATAAAGACACATCATTTCAATTCAACCATCAGTAGCCTCTACTTTTTAAAAAAATATTTTTA: 0.046 ratio
TCACGCTATCCAGCTCAGCACTTGGCAAACATTAGCTCACCACAAGAATGCATCCTCAGGTTTTTAAGTCAGACAAGGGCTTCATAGCAGTTCAAATGACATTGGGGATGAACAGTTCCTTGCGGTGGGGGCTGTTCTGTGCATTGTGAGACGCTCAGCAGCATCCACGTGGCCTCTTTCCACTAGATGCCAA: 0.181 ratio
CTCATTCCTTGCTTCCGCCAATAATCTGACTAGTAAAGAAGTCACTGCATGCCACAAATTGTCAGTGCTGACTTCCTCAACAAGGAAGTATAAGTAAATAAATATTAATATATATGCAAAGAGTGACTCAGTTCCATCTTGAGAATACCAACTCCTGATGCCAACTGATTGTCAGTCATGGCTACAACAGGAG: 0.429 ratio
TATCTGAGAAGTCTGATCCAGAGTTGATGAGCAGATAAAAAATGTTGAAAGGATCCACGCTCTTTCCATCTCTCTGCTTAGTGTTCCTCACTGTGTTTGCTTTTCTTCAGTTTGTTACTTTTTTTTTTTTTTGAGATCGAGTTTCGCTCTTGTTACCCAGGCTGGAGTGCAATGGGGCGATCTCTGCTCACTG: 0.35 ratio
AGAGCAACTGACAATCTCACACATTGCTAATGGAATAGTGGGTTTGGTGACTTGGAAGTGGGATGTTGAGGGCTTCTTGAAGGTTTTATTCAAGATTACTTTAATTGCCAACATTAGTTCTTACATAGGTATTTTCACAAAATAATGTATTGAGCTGTATACTTACTATTAGAGTACTTTTTCTTAATGCATT: -0.0287 ratio

Sample 4 — method: DNA-protein interaction ELISA; form: double-stranded DNA, one strand shown; medium: in vitro, bacterial lysate; tested at: not given; setting: whole dsDNA probe, crude lysate protein; reference: highest signal in screen; direction: higher = stronger binding; quantity: relative absorbance
Target: Probable WRKY transcription factor 11, DNA-binding domain (WRKY11, Arabidopsis thaliana, UniProt Q9SV15, residues 228-325)
Target sequence (chain): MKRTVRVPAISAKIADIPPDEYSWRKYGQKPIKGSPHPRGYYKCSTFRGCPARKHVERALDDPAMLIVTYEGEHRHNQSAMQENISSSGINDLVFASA
AAAAAAGGGCCCACTATCGACGTCAAAA: 14.7 % of maximum
AAAAAACAGTTCGATGTCACCCCCGCAAAA: 14.1 % of maximum
AAAAAAGTCATTATAACCCAAACTCTAAAA: 12.1 % of maximum
AAAAAATGACCAGGCCTCGAGCAAAAA: 17.9 % of maximum
AAAAAACATCGCTGTCGTTGACGTTGAAAA: 90.8 % of maximum
AAAAAAATGCGCCCTTTCTGACATAAAAAA: 15.6 % of maximum
AAAAAAACGGGTTGTGAATGTGGAAGAAAA: 13.5 % of maximum
AAAAAATTACTTCTCCCTTCCTTTGCAAAA: 14.1 % of maximum

Excerpt of the above (sample 4):
AAAAAAGTCATTATAACCCAAACTCTAAAA: 12.1 % of maximum
AAAAAACAGTTCGATGTCACCCCCGCAAAA: 14.1 % of maximum
AAAAAAACGGGTTGTGAATGTGGAAGAAAA: 13.5 % of maximum
AAAAAAATGCGCCCTTTCTGACATAAAAAA: 15.6 % of maximum
AAAAAACATCGCTGTCGTTGACGTTGAAAA: 90.8 % of maximum
AAAAAATTACTTCTCCCTTCCTTTGCAAAA: 14.1 % of maximum
